Assay results pooled from the literature.
Every numbered part comes from another study and shows a few of its results, in no order. Substitutions count along the parent as printed.
Chain of UniProt Q9ZTX9 (whole entry, looked up): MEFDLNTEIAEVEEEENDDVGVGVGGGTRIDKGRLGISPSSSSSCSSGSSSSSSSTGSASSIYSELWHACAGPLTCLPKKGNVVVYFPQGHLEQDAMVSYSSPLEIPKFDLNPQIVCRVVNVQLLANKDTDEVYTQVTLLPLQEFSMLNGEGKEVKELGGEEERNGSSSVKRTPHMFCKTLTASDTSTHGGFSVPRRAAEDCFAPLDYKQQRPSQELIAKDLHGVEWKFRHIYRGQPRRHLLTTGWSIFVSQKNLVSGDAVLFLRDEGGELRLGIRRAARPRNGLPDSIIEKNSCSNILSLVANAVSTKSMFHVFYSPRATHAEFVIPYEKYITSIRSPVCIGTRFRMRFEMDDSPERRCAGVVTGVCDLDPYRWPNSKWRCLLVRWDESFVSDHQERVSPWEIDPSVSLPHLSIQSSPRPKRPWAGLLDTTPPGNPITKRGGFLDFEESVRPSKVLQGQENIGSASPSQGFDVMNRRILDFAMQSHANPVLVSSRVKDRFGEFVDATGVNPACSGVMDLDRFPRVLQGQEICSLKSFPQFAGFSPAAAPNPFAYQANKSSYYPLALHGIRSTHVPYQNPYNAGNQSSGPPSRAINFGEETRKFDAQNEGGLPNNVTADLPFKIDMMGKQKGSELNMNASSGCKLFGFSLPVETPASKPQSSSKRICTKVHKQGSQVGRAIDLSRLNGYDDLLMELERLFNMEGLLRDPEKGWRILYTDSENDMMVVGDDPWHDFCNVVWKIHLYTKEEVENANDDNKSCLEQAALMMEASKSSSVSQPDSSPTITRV
Chain of UniProt Q9FX25 (whole entry, looked up): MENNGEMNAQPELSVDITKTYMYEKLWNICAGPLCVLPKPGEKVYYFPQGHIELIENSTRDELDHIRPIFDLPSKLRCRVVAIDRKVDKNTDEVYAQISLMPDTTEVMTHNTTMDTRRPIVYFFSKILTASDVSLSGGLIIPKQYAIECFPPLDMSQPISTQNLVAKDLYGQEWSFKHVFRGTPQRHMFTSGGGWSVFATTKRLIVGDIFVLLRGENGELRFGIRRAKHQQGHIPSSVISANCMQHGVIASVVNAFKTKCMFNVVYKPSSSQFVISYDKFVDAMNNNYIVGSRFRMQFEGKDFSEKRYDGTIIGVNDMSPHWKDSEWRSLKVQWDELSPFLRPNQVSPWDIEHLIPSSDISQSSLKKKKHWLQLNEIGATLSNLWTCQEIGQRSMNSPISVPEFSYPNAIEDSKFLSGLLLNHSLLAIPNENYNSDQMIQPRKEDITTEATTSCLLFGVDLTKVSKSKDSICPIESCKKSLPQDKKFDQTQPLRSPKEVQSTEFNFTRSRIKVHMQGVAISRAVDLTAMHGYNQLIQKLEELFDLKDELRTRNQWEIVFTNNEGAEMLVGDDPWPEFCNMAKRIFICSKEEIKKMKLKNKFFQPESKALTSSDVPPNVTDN

Set 1 — Sequence: B1 (IAA14); method: two-hybrid; relative to: out of 4 tests; direction: higher = firmer interaction
B1: IAA14 (Arabidopsis thaliana, UniProt Q38832); chain MNLKETELCLGLPGGTETVESPAKSGVGNKRGFSETVDLKLNLQSNKQGHVDLNTNGAPKEKTFLKDPSKPPAKAQVVGWPPVRNYRKNVMANQKSGEAEEAMSSGGGTVAFVKVSMDGAPYLRKVDLKMYTSYKDLSDALAKMFSSFTMGSYGAQGMIDFMNESKVMDLLNSSEYVPSYEDKDGDWMLVGDVPWPMFVESCKRLRIMKGSEAIGLAPRAMEKFKNRS
partner | positive tests
ARF13 (Arabidopsis thaliana, UniProt Q9FX25) | 0
IAA16 (Arabidopsis thaliana, UniProt O24407) | 3
ARF4 660-788 (Arabidopsis thaliana, UniProt Q9ZTX9) | 0

Set 2 — target: JUNB, bZIP domain (human); method: DHFR protein complementation; matrix: yeast; relative to: wild-type JUN-FOS pair; direction: higher = stronger binding
Notes: single substitutions, most at no-binding floor
Starting sequence: JUN, bZIP domain (human); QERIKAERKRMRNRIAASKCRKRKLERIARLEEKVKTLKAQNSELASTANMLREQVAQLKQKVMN; partner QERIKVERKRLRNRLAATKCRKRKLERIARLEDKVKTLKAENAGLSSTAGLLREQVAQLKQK
Variant | binding fitness
R30H | -1.09 natural log
E33G | -1.34 natural log
A57R | -1.2 natural log
L45C | -1.49 natural log
N42K | -1.4 natural log
M51R | -1.07 natural log
E44M | -1.19 natural log
L52V | -1.36 natural log
T37E | -0.833 natural log
A49P | -1.45 natural log
S47V | -1.04 natural log
S43E | -0.813 natural log
E44A | -1.2 natural log
Q58R | -1.07 natural log
K34S | -1.24 natural log
A29S | -1.21 natural log
L31E | -1.62 natural log

Set 3 — method: DHFR PCA, deep sequencing; matrix: yeast; together with: (+)-ABA 0.11 µM; relative to: wild-type fitted maximum; direction: higher = stronger binding
Target: ABI1, truncated, D143A, DHFR fusion (Arabidopsis thaliana)
Notes: methotrexate growth selection, single substitutions
Starting sequence: PYL1, truncated, DHFR fusion (Arabidopsis thaliana); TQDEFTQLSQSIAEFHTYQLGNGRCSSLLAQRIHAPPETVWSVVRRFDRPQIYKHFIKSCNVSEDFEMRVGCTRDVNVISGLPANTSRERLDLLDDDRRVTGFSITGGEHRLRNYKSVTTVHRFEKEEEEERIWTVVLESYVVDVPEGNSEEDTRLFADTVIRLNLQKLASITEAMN; partner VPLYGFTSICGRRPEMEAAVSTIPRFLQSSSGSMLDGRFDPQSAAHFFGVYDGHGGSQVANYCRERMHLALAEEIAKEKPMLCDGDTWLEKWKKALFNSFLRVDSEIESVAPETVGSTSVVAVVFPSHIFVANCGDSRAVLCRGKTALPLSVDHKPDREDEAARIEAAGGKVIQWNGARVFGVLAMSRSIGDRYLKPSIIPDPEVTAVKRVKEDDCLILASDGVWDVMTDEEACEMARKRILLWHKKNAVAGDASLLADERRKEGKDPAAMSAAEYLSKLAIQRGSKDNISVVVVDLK
Variant | relative binding score [%]
D95T | -3.54
T39H | 12.1
A13R | 37.9
L93M | 31.6
A84H | 64.9
W41I | -4.16
V62K | -2.3
E64G | 20.2
E38K | 6.41
R123G | 77.9
P146Q | 17.1
V44I | 11.1
T154G | -1.19
N114D | 12.1
F157L | 9.26
V161F | 21.3
G107V | -0.191
G23N | 31.7
E139F | -8.41
E152T | 11.9
S150K | 11.3
D95C | -2.18
E128W | 15.1
R132D | 74

Set 4 — target: CCNB3, cyclin fold, Cln2 fusion (human); method: yeast growth competition, sequencing; matrix: yeast; notes: weak parent motif; relative to: not given; direction: higher = stronger binding
Starting sequence: E2F1 docking peptide (human); PPVKRRLDLETDH; partner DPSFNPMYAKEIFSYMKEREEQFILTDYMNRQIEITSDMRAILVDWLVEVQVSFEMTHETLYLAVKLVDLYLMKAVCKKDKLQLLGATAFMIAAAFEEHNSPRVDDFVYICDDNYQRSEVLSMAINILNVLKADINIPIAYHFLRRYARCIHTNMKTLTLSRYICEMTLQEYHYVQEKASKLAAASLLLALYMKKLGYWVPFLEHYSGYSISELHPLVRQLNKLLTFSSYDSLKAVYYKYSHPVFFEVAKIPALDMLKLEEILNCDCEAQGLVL
Variant | normalised enrichment score
K4G | -0.0905
K4E | 0.183
D12V | 0.15
D8H | -0.178
D12G | 0.39
L7Q | 0.191
V3Q | 0.272
D8N | 0.601
V3K | 0.0882
H13L | 0.0604
R5L | 0.142
P1H | 0.58
P2F | 0.504
R6Y | -0.0127
K4R | 0.474
P2Q | 0.21
P2T | 0.284
P1V | 0.424
R5Q | 0.348
L7M | 0.223
E10A | 0.256

Set 5 — method: RNA Bind-n-Seq; form: RNA; matrix: in vitro; tested at: 365 nM; relative to: no-protein control; direction: higher = stronger binding
Target: RNA binding protein fox-1 homolog 2, RRM domain, GST-SBP tag (RBFOX2, Homo sapiens, UniProt O43251-10, residues 100-194)
Notes: natural RNA segment, single round, ends assumed
Residues (chain): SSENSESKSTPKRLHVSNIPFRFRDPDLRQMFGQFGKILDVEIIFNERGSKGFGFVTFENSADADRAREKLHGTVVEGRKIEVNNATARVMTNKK
Oligonucleotide | RBNS enrichment (R)
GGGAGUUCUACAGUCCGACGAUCAUCAUUGUCUGUUAAUAAUGUAUAAAAUGGCUAUCUUGUAAGUGUGCUGUCUUGGUACUAGUGUAGUGACUUUUUUUCUCCUCUUCUAGUACAUAUUGAUAGGUAUAAUGUGGAAUUCUCGGGUGCCAA | 0.37
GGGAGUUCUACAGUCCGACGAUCCUGCCCUCCCUGACCCUAUAGCCCCAGGCCUCAUGGGGGGUAUGUGGGGAAGGGAUGGGGUAUCCCCAUGGAUGCUGGGAUGAGGACAGAGGAAGACCUGAUGGGGUCUCUGGAAUUCUCGGGUGCCAA | 0.426
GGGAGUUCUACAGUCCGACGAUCGUCCAUUUAACGACUGGUCACCUGCUGGGGACCCAGGCAUCUGCCUUGUUUUCCUUUUUCUUUCAGUUUUGGACUUUGGACCCUGCACAGCCGUUCCCCAGGGUCUGAAAUGGAAUUCUCGGGUGCCAA | 0.325
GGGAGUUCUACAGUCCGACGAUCCAUCUUUAUAUUUUUAAAAUUGUAUUGCUGCUCAAGAAUGGUACCCUUUUGUCAAAAAGGUAGAUAUUCAUAAUUGUACAUUCAGCAUUGUAAAUACCAUAUGAAAUCCUUGGAAUUCUCGGGUGCCAA | 0.417
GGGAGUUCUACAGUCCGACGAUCUGGCAGAAGUGUAGCAGCGUUACACAUGUGUGCGAAGCAGAUCGCAGGUUCCACGCCAUCUGCAUGGCCUGCAGGAGCUUCUGCUGCUGACCCCAUGCUGAGUGGCCAGUUGGAAUUCUCGGGUGCCAA | 0.234
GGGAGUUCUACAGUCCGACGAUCUCAUUCUUGGAGGUGCUUUGAAAUUUUAGGUAGAAUAUAAUCGAAAUUAUGGAGGUUCCUUAGUGCUCAAUAAUAUAAGACCUGGUGUUAUUAGAACGAGUCUUUCUUAUUGGAAUUCUCGGGUGCCAA | 1.94
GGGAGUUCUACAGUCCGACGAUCGUAAAUGCACCAAUUCUGAAGGCACUUUAUGUACUACAUGGAGGUCAUAUCUGGUUUUGUUUUUAUUUUUUUAUCAUGAACAUUAAAUGUGAUGAUGAUUUCUUUUCCCUUGGAAUUCUCGGGUGCCAA | 0.471
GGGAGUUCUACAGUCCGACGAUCGUAGUUUACAGAAAAAGACUUUAAAAGUGAUCUACAUGAGGAACUGUAGAUGAUGUAUUUUUUUCAUCUUUUUUGUUAACUGAUUUGCAAUAAAAAUGAUACUGAUGGUGUGGAAUUCUCGGGUGCCAA | 0.746
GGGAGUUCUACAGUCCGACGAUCCUCAAGGUGCCUCCUCCUCUCCUUAGCUGGCCCGUUGGUUUUCUGAGCAGGGGGCUGAACUGUGAACAAGUCAGACAAAUAAAGCAAGGGUCUGCACCAUCUGCAAUGUCUGGAAUUCUCGGGUGCCAA | 0.313
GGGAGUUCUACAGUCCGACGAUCCACAAGGCAGAGUUACUCGUGAGAAAGGGCAGCAGUGUUGUGUGCAUCUGUCAGUCAGGUUGUAUGGGCUGGAGGCUGGCAGGUCUGCAUGGUAGGCUGAGUUUGCUGUCUGGAAUUCUCGGGUGCCAA | 3.12
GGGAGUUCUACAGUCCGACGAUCAUGGCUUUCUGCAACUUGCUACUCUCUCCCUCUCCAUCCCAUCUUUGCAGCCUCAUAGGGUGGGAUACAGCAGCUUUUUUUGCAGUUAUCCACACUCACAUUUCAGAGUCUGGAAUUCUCGGGUGCCAA | 0.385
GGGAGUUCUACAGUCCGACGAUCUCUGAGGAACCUUGUGUCCAGUUGUUACAAAGUUUAAGCUUUGAACCUAACCUGCAUCCCAUUUCCAGCCUCUUUUCAAGCUGAGAAAAAAAAAAAAAAACACGUUUGAUUGGAAUUCUCGGGUGCCAA | 0.973

Set 6 — method: RNA Bind-n-Seq; form: RNA; matrix: in vitro; tested at: 100 nM; relative to: input RNA pool; direction: higher = stronger binding
Target: RING finger protein unkempt homolog, zinc fingers 1-6, SBP tag (UNK, Homo sapiens, UniProt Q9C0B0, residues 30-357)
Chain of UniProt Q9C0B0 (30-357, looked up): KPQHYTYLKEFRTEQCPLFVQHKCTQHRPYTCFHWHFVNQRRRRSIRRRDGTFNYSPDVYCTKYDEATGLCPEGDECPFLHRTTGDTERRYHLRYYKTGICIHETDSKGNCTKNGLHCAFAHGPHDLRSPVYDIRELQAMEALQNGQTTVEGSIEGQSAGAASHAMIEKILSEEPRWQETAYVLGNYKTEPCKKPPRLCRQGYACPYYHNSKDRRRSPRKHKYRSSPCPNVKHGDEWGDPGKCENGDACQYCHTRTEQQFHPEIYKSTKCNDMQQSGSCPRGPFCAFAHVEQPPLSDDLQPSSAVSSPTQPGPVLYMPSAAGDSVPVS
Notes: RNA with constant flanks, vertebrate orthologous sites, ends assumed
Oligonucleotide | bound/input enrichment
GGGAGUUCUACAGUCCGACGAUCAUCUCCAUAAUAACCUGGGAUUUUCAAAGACAGGAAGCUUUUUUUUUUUUUUUUUAACAGUUUAGUACUUGGUUUCUACGAGGAGGACUAAACUCAUGCUUAUAGCUACAUGUGGUCUUCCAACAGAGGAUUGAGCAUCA | 0.591 ratio
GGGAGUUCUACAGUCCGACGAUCCAUUGUACCCUGCUGUAUAAUAAACAAUCUUAGACAUUUAUCAAUUGUUGAUACAAAUGUUAGUCCCUAACCACUUUUUAUAUGUUUUAAAUUUUUGAAAUUCAAGUGUACCUGCCAUAACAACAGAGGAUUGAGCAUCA | 1.99 ratio
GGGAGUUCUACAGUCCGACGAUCUAUAAUUAUGAAAAUCUAAAGGAUUUUUAAUGUUUAAUUUCCCCCAGCAUCUCUAUUAAGACCUCUUUUUUCCAGGCAGAUCAUUCAGAGUGUGCGAGUGUGUGUGCACAUGUUACAAAGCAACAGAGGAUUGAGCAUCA | 0.591 ratio
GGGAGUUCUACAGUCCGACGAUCAAGCCCCGCUUUUAGAUGUGACAUCUAGGCUUUCAUUCCAGUUUGUUUUGUCUUCUUGUUUAGAUAGCAACCUUUUAAAUUCUUGCAUUUUAGUAAGAAAGCUACCUUUUUAUGGAUGUUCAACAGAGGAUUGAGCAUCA | 0.619 ratio
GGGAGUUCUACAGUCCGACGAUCACAUGUAUAUUGUGGCAUAUAGUCAACAUGGAAGUAGACCGGCUCUGCUGAUUUGAAAUUUAGAUUUUUUUAAUUAUGUACUGGGGACAGGUUUUUGUCGCUUUACAUUGCUUCCUAGUUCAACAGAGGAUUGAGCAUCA | 4.4 ratio
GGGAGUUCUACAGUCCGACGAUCGAAGUUCCCCAUUGUCACUGAGAACCACCAAAUUUGACUUUCACAUUUGGUCUCAGAAUUUAGGUUCCUGCCCUGUUGUUUUUCUUUCUUUUUCUUAAAACAAACAAACAAACAAACAGUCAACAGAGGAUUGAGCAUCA | 0.342 ratio
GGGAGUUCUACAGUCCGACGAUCGAAGCUAUUGAAUAGUAUUAAGAUUCUCGUCUUCCUUUUUCUUUUUUUUUGGUCCCAUAAUAGUCUACUUUUUUAAAUUUCAGACUCCACUGCUCUUUGAAUUGAUACUUCCAAUUUUCACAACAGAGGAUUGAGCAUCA | 1.27 ratio
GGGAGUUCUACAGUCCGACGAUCCUACAAUAAUGAAAACCUACAGAAAUUUUUUUUUGUAUUUUUCAUUUUCCCCUUAGGCAUAAUUAGUCUUUUUUCCCCAGGCAGAUCAUUCUGAGUGUGCGAGUGUGUGUGCACAUGUUACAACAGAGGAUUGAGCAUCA | 1.31 ratio
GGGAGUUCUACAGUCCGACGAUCUCAUUGUACUGCCAGCAUCAUCCUAGUGUUAAACCAGCCGCUGUGAUAACUAGUGUGUGCUAGAAUUAUUUACUAUUACCUUUUAAACUAUGCGCUUUGCCCAAUACUUGAAAGCAAUCCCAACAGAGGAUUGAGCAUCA | 2.8 ratio
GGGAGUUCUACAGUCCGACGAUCAUCUCUUAUUUUGUAUACCCAAAAAUGACCUUGAAUUUUUAAACAAUUGAUAGUUUUAACUAGCUCAACCCUCAUAAAGUAUUACUGUAGCUCACUAUAAACAGAUAUCUGUCUGAAUUACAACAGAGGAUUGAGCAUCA | 1.04 ratio
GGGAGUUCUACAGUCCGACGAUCAAUUUUCUUAUUUUAGGUAUCAUUGCCCAAUGCCCAAGAUCUUUUAUGUUCAGCUGACUGUAGGAAAUAAUGAAUUUUUUGGGGAAGGAAAGACUCGACAAGCUGCUAGACACAAUGCUGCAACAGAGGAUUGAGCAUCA | 1.42 ratio
